Published values from different studies.
Numbered parts are unrelated; each lists some results of a single study.
Sequence of UniProt P00519 (whole entry, unmodified, looked up): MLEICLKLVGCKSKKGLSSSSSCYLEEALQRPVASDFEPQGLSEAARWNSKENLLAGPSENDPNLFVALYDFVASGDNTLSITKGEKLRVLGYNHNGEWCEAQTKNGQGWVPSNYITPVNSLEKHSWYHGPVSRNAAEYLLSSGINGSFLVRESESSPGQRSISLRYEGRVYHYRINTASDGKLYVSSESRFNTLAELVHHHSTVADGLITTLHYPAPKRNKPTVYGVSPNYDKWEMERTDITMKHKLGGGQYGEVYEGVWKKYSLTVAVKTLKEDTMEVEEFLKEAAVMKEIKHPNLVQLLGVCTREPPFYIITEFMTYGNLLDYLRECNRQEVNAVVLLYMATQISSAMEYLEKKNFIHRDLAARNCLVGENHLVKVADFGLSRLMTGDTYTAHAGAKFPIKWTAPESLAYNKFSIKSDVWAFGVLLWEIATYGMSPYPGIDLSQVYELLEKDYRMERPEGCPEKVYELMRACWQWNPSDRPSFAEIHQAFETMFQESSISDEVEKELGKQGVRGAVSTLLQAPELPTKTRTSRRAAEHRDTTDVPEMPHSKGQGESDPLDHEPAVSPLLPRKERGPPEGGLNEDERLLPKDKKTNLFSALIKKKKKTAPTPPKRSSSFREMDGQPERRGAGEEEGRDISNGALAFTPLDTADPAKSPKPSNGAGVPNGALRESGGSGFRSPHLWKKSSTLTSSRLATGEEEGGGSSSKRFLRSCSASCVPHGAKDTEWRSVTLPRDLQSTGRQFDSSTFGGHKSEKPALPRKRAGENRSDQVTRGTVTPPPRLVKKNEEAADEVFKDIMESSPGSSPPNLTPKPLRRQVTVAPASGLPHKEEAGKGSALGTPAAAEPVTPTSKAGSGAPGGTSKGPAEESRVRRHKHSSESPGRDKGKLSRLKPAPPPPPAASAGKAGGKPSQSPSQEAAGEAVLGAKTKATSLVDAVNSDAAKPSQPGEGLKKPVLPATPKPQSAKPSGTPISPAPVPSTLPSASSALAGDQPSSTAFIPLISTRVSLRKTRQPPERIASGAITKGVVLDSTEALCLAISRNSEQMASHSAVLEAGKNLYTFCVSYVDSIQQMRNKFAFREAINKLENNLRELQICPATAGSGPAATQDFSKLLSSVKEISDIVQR
Sequence of UniProt Q8NG66 (whole entry, looked up): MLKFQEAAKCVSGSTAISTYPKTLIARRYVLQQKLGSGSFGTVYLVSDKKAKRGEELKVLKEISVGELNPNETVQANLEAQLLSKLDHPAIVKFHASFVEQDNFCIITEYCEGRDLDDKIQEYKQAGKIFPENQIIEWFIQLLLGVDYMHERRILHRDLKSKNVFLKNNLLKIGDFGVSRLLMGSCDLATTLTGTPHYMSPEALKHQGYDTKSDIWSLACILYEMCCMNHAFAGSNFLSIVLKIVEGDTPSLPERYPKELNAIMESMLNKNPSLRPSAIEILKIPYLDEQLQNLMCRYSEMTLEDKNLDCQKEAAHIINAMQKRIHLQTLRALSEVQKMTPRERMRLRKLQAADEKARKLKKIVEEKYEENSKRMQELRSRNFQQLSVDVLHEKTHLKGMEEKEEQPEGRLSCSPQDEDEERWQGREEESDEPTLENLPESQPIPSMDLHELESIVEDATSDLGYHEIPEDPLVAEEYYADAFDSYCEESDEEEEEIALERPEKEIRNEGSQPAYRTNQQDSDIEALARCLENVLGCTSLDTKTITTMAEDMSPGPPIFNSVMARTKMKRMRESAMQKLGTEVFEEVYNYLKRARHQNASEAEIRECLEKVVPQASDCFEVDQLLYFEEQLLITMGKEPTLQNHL
Sequence of UniProt P27361 (whole entry, looked up): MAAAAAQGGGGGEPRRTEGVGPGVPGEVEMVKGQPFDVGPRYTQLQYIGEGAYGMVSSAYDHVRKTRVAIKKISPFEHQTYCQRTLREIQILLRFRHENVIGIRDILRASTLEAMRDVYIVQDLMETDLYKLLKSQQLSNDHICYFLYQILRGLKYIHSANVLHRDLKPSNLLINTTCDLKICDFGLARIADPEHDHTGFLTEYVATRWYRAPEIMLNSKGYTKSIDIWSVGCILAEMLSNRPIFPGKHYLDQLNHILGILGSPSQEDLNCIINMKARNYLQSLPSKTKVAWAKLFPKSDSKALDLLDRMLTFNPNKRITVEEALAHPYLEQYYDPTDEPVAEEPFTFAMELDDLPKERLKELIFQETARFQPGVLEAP
Sequence of UniProt Q9UEE5 (whole entry, looked up): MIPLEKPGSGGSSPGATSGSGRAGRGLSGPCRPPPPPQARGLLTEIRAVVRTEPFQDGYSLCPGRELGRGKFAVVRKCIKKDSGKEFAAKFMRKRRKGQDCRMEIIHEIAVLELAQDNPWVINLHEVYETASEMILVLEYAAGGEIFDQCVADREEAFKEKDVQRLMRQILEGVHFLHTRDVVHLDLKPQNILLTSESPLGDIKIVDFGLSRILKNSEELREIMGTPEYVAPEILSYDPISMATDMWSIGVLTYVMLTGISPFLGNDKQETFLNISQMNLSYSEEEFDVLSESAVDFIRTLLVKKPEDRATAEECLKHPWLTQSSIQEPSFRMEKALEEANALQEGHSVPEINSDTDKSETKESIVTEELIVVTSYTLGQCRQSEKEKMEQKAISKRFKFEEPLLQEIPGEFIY
Sequence of UniProt P07949 (whole entry, unmodified, looked up): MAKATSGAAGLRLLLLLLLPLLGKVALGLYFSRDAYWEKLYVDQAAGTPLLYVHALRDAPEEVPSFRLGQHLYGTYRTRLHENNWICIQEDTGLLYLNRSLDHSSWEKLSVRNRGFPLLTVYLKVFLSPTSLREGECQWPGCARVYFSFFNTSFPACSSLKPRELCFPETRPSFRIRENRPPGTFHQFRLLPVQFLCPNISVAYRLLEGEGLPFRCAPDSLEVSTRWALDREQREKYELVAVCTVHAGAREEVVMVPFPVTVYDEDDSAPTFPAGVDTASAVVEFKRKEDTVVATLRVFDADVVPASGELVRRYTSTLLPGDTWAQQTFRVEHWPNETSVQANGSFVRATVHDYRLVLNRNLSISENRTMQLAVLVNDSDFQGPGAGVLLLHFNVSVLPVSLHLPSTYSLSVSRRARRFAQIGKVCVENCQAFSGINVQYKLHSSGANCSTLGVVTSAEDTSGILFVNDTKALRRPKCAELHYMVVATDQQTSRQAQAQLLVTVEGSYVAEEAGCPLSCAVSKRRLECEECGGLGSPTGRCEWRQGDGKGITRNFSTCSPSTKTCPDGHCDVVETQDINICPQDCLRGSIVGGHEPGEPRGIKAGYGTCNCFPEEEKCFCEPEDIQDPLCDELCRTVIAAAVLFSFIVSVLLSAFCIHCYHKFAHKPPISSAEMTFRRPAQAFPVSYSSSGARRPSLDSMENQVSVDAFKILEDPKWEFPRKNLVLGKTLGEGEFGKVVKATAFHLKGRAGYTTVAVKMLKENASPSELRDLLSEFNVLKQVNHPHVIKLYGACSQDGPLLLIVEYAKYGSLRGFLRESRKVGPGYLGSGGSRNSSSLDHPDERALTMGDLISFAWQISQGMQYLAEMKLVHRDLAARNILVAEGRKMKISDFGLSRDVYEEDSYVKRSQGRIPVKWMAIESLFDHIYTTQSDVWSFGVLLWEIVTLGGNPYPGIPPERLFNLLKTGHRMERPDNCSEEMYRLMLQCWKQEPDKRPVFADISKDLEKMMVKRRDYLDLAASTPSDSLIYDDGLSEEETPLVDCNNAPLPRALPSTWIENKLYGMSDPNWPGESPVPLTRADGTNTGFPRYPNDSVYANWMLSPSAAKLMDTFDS
Sequence of UniProt P09769 (whole entry, looked up): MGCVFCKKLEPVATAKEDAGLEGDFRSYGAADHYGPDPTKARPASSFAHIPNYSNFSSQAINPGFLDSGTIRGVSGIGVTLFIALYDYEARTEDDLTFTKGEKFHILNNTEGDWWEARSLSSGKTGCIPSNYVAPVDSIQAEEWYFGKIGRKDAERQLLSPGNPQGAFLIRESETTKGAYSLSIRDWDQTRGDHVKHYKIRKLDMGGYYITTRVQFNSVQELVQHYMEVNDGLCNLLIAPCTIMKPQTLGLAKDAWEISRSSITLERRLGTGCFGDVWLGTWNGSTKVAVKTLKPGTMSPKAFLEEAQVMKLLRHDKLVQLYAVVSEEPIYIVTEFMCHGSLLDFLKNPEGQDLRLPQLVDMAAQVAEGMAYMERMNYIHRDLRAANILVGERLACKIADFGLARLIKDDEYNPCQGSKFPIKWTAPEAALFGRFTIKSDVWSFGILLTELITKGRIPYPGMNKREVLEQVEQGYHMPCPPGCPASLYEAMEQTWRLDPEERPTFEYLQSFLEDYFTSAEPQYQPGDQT

Block 1 — technique: competition with immobilised ligand; tested at: 1 µM
Structure (SMILES): CO[C@@H](C)c1c(Nc2ccc([C@@H](N(C)C(=O)C3CCS(=O)(=O)CC3)C(F)(F)F)cc2)cnc2cc(Cl)nn12
target | assay | remaining binding
Tyrosine-protein kinase Fgr (FGR, Homo sapiens, UniProt P09769) | cell-free assay | 100%
Receptor tyrosine-protein kinase erbB-2 (ERBB2, Homo sapiens, UniProt P04626) | cell-free assay | 70%
Mitogen-activated protein kinase kinase kinase 10 (MAP3K10, Homo sapiens, UniProt Q02779) | cell-free assay | 77%
MAP/microtubule affinity-regulating kinase 3 (MARK3, Homo sapiens, UniProt P27448) | cell-free assay | 100%
Phosphatidylinositol 5-phosphate 4-kinase type-2 beta (PIP4K2B, Homo sapiens, UniProt P78356) | cell-free assay | 100%
Tyrosine-protein kinase ABL1, phosphorylated (ABL1, Homo sapiens, UniProt P00519, F317L) | cell-free assay | 89%
Mast/stem cell growth factor receptor Kit (KIT, Homo sapiens, UniProt P10721, L576P) | cell-free assay | 100%
3-phosphoinositide-dependent protein kinase 1 (PDPK1, Homo sapiens, UniProt O15530) | cell-free assay | 97%
Wee1-like protein kinase 2 (WEE2, Homo sapiens, UniProt P0C1S8) | cell-free assay | 100%
Phosphatidylinositol 4,5-bisphosphate 3-kinase catalytic subunit alpha isoform (PIK3CA, Homo sapiens, UniProt P42336, E545A) | cell-free assay | 77%
Serine/threonine-protein kinase 17A (STK17A, Homo sapiens, UniProt Q9UEE5) | cell-free assay | 90%
Mitogen-activated protein kinase 3 (MAPK3, Homo sapiens, UniProt P27361) | cell-free assay | 86%
Tyrosine-protein kinase ABL1, non-phosphorylated (ABL1, Homo sapiens, UniProt P00519, F317I) | binding | 100%
cAMP-dependent protein kinase catalytic subunit beta (PRKACB, Homo sapiens, UniProt P22694) | cell-free assay | 89%
Serine/threonine-protein kinase Nek11 (NEK11, Homo sapiens, UniProt Q8NG66) | cell-free assay | 100%
Mitogen-activated protein kinase 10 (MAPK10, Homo sapiens, UniProt P53779) | cell-free assay | 78%
Mitogen-activated protein kinase kinase kinase kinase 5 (MAP4K5, Homo sapiens, UniProt Q9Y4K4) | cell-free assay | 100%
cAMP-dependent protein kinase catalytic subunit alpha (PRKACA, Homo sapiens, UniProt P17612) | cell-free assay | 87%
Proto-oncogene tyrosine-protein kinase receptor Ret (RET, Homo sapiens, UniProt P07949, V804L) | cell-free assay | 78%

Block 2 — read-out: enzyme activity; mode: inhibitor; tested at: 0.5 µM; relative to: control
Target: Dual specificity protein kinase TTK (TTK, Homo sapiens, UniProt P33981)
Sequence of UniProt P33981 (whole entry, looked up): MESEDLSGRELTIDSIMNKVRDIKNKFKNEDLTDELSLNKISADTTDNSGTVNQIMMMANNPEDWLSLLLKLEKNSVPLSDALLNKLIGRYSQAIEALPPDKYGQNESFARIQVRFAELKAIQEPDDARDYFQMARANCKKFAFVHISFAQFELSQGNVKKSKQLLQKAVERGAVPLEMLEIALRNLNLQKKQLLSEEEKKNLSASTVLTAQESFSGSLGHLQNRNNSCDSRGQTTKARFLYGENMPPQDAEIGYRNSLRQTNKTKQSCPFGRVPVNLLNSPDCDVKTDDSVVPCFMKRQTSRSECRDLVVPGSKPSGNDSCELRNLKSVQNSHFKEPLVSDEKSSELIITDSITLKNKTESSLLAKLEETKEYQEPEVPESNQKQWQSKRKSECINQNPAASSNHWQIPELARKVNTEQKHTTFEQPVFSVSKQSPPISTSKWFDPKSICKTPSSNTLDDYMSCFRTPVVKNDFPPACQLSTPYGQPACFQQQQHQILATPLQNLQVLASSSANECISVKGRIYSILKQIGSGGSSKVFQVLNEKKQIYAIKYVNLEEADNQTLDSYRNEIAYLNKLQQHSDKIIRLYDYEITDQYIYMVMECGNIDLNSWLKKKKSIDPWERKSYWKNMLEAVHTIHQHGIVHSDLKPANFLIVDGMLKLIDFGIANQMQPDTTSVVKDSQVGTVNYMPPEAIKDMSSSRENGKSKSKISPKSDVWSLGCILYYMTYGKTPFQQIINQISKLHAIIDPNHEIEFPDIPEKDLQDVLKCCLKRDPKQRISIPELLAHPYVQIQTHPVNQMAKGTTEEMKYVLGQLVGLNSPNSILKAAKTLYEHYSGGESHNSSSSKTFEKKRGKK
SMILES | remaining activity [%]
CC(=O)c1ccc(N2CCOCC2)cc1O | 103
CC(C)(C)n1nc(Cc2cccc3ccccc23)c2c(N)ncnc21 | 84.5
O=C1Cc2c([nH]c3ccc([N+](=O)[O-])cc23)-c2ccccc2N1 | 87.4
CCc1[nH]c(-c2ccc(OC)cc2)nc1-c1ccncc1 | 105
Fc1ccc(-c2nc3n(c2-c2ccncc2)CCS3)cc1 | 100
O=S(=O)(NCCNC/C=C/c1ccc(Br)cc1)c1cccc2cnccc12 | 99.7
N#CC(=C(N)Sc1ccc(N)cc1)c1ccccc1C(F)(F)F | 93.6
Cc1cncc2cccc(S(=O)(=O)N3CCCN(C(=O)CN)C[C@@H]3C)c12 | 111
NC(=O)c1ccc(N(C(N)=O)c2c(F)cccc2F)nc1-c1ccc(F)cc1F | 98.8
CSc1nc(-c2ccnc(N[C@@H](C)c3ccccc3)c2)c(-c2ccc(F)cc2)[nH]1 (racemic) | 102
COc1cc(Nc2c(C#N)cnc3cc(OCCCN4CCN(C)CC4)c(OC)cc23)c(Cl)cc1Cl | 110
Nc1ncnc2c1cnn2-c1ccccc1 | 90.6
CC#CC(=O)Nc1cc2c(Nc3ccc(F)c(Cl)c3)ncnc2cn1 | 104
O=C1NC(=O)C(c2c[nH]c3ccccc23)=C1c1c[nH]c2ccccc12 | 106
Nc1nccc(-c2c(-c3ccc(F)cc3)ncn2C2CCNCC2)n1 | 107
COc1ccc(S(=O)(=O)N(CCO)c2ccccc2CN(C)CC=Cc2ccc(Cl)cc2)cc1 | 83.3
Oc1ccc(Nc2nc(-c3ccc(Cl)cc3)cs2)cc1 | 87.6
Cc1ccc(NC2=CC(=O)c3sc(C)nc3C2=O)cc1 | 98.9
Cc1cc(Nc2nc(-c3ccccc3)nc3ccccc23)n[nH]1 | 102
CCCC(=O)Oc1ccc2[nH]c(C(=O)c3cc4ccccc4[nH]3)cc2c1 | 85.7

Block 3 — species: mouse; sample: microsomes or S9; tested at: 2 µM; time: 0.5 h
SMILES | remaining compound [%]
CC1CCC(N(Cc2nnc(C3CCC3)n2C)CC2CCCO2)CC1 (centres unmarked) | 0.0264
Cc1ccc(C/N=C2\C(c3ccc(F)c(F)c3)=Nc3ncnn32)cc1 | 74.2
COc1ccc2c(c1)OCC(Cc1ccc(OC)c(O)c1)C2=O (centres unmarked) | 1.11
c1ccc(-c2nc3ccccc3nc2N2CCCC2)cc1 | 7.92
COc1cc(=O)[nH]cc1C(=O)N1CCCC1c1cncc(C)c1 (centres unmarked) | 88.5
Cc1ccccc1N1CCN(C2CCc3occc3C2=O)CC1 (centres unmarked) | 0.0403
CN(C)c1nc(N2CCOC3(CCCC3)C2)ncc1F | 0.85
COC(=O)c1ccc(S(C)(=O)=O)c(COCCn2cncn2)c1Cl | 80.5
Cc1cccc2c1ccn2CC(=O)N1CCNC(=O)C1 | 75.2
Cc1ccccc1N(CC(=O)N1CCN(C/C=C/c2ccccc2)CC1)S(C)(=O)=O | 3.87

Other studies, line by line
Compound | test system | conditions | measurement | value
CC(C)n1cnc(-c2ccc(F)cc2)c1-c1ncc(C(=O)Nc2ccc(N3CCN(C)CC3)cc2)[nH]1 | IPF patients | 60 mg once daily, adverse event | Hypercholesterolaemia incidence | 0%

For quick reference, copied from above (block 3):
SMILES | remaining compound [%]
Cc1ccccc1N1CCN(C2CCc3occc3C2=O)CC1 (centres unmarked) | 0.0403
COc1ccc2c(c1)OCC(Cc1ccc(OC)c(O)c1)C2=O (centres unmarked) | 1.11
c1ccc(-c2nc3ccccc3nc2N2CCCC2)cc1 | 7.92
COc1cc(=O)[nH]cc1C(=O)N1CCCC1c1cncc(C)c1 (centres unmarked) | 88.5
COC(=O)c1ccc(S(C)(=O)=O)c(COCCn2cncn2)c1Cl | 80.5
CN(C)c1nc(N2CCOC3(CCCC3)C2)ncc1F | 0.85
CC1CCC(N(Cc2nnc(C3CCC3)n2C)CC2CCCO2)CC1 (centres unmarked) | 0.0264
Cc1ccccc1N(CC(=O)N1CCN(C/C=C/c2ccccc2)CC1)S(C)(=O)=O | 3.87
